# Assay results collected from several papers.
# Parts stem from different laboratories: compare values within a part only.

# Series 1 — technique: RNA Bind-n-Seq; molecule type: RNA; medium: in vitro; tested at: 200 nM; notes: whole 134-nt RNA, ends assumed; together with: 150 mM LiCl; baseline: input library; reading: higher = stronger binding; all molecules: 7-deaza-guanosine replaces G
# Target: Fragile X messenger ribonucleoprotein 1, C-terminal low-complexity region (Fmr1, Mus musculus, UniProt P35922)
Sequence,log2 enrichment
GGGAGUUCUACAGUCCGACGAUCCCUGUGCUACACAUCGUAUGUACCGAAUCGGGGAAAAAAAGGGAAAAAAAGGAAAAAAAGGAAAGUAUUAUGUUACGCCGUUCGGAUCUGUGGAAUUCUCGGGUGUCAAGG,0.109
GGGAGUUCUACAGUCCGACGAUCGUCCUGUGCUACACAUCGUAUGUACCGAAUCGGGCCCCGGGGCCCCGGGGCCCCGGGGAAAGUAUUAUGUUACGCCGUUCGGAUCUGCACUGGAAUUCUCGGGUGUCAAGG,0.455
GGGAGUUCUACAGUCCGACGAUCUCAAGUCCUGUGCUACACAUCGUAUGUACCGAAUCGGGUGGGAGGGUUUUUGGGAAAGUAUUAUGUUACGCCGUUCGGAUCUGCACUUCCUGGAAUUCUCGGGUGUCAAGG,-1.58
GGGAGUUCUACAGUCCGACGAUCCACAGACAACACGCACCCACACAGACACAGAGGGAAGGGGUUGGGAUGGGGACAGGGUGCACAGCAGGGCGGGGUAGGACCACAGCCCCUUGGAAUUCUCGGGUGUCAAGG,0.262
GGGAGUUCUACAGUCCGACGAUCAGUCCUGUGCUACACAUCGUAUGUACCGAAUCAAACCCCCCCAAACCCAAACCCAAAAAAGUAUUAUGUUACGCCGUUCGGAUCUGCACUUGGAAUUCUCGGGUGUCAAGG,0.381
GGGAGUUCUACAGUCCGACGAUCCCUCAAGUCCUGUGCUACACAUCGUAUGUACCGAAUCGGAAGGGAAGGAAGGGAAAGUAUUAUGUUACGCCGUUCGGAUCUGCACUUCCAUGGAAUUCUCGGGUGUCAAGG,-1.33
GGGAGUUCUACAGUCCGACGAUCUGCAUUUCCUGAGCUGAAGAAGGACCCAGACAUGGUGAAGGACAUCAUUAAUGAAGAAGAGGUGCAGUUUCUCAAGACUCUCAGCAGAGGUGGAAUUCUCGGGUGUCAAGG,-2.28
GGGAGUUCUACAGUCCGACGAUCCCUCAAGUCCUGUGCUACACAUCGUAUGUACCGAAUCGGGGCCGGCCGGCCGGAAAGUAUUAUGUUACGCCGUUCGGAUCUGCACUUCCAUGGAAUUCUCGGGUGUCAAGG,0.592
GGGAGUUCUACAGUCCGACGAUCCUCAAGUCCUGUGCUACACAUCGUAUGUACCGAAUCGGGAGGGUUUGGGUGGGAAAGUAUUAUGUUACGCCGUUCGGAUCUGCACUUCCAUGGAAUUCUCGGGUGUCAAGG,-0.359
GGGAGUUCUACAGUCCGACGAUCUGUGCUACACAUCGUAUGUACCGAAUCGGGGAAAAAGGGGAAAAAAAGGGGUUUUUUUGGGGAAAGUAUUAUGUUACGCCGUUCGGAUCUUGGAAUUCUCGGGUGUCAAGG,-0.204
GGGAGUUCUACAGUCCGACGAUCAGUCCUGUGCUACACAUCGUAUGUACCGAAUCGGGAAAAAGGGUUUGGGAAAAAGGGAAAGUAUUAUGUUACGCCGUUCGGAUCUGCACUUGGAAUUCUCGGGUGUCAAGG,-2.44

# Series 2 — technique: protein binding microarray; molecule type: double-stranded DNA, one strand shown; medium: in vitro; tested at: not given; baseline: not given; reading: higher = stronger binding
# Target: Histone acetyltransferase KAT6A, both winged helices, GST fusion (KAT6A, Homo sapiens, UniProt Q92794, residues 1-181)
# Notes: 8-mer, flanks averaged, mean of 2 arrays, mostly near background
# Residues (chain): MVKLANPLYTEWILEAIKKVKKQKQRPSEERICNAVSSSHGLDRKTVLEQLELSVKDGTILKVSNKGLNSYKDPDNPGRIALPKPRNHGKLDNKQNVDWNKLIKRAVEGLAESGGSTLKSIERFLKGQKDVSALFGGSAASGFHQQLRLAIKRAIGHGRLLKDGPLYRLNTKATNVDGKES
Sequence,E-score
CGATCCCG,0.203
CTGGTGGC,-0.222
AATAACCG,0.151
AGATGTGG,-0.229
ACGGCGAT,0.328
ACTTGGCC,-0.129
CGCGCCCC,0.337
ACGAAGCC,-0.0224
AATGCGCG,0.363
ACATTTAT,-0.0744
GAGGGGAC,-0.185
ATAAGTGG,-0.0499
ACAACAGG,-0.0927
AGGGCGAA,-0.0481
GGAACGTA,-0.0426
CATCTGTC,-0.0976
GTCCGGAC,0.268
ATTCGGAG,-0.132
AAGGGACC,-0.0398
GATGTGCC,-0.0556
AGTAAACT,-0.00553
CTCTAAAC,0.00564
GATGAGGC,-0.121

# Series 3 — technique: protein-binding microarray; molecule type: double-stranded DNA, one strand shown; medium: in vitro; tested at: 2200 nM top; notes: 60-bp whole probe; together with: salmon DNA 0.4 mg/ml; baseline: random background probes; reading: higher = stronger binding; all sequences stand within: GCCTAGCAC … GTCTTGATTCGCTTGACGCTGCTG
# Target: Interferon regulatory factor 7, full length, phosphomimetic (IRF7, Homo sapiens, UniProt Q92985, residues 1-503, S471D/S472D/S475D/S476D/S477D/S483D/S484D/S487D)
# Residues (chain): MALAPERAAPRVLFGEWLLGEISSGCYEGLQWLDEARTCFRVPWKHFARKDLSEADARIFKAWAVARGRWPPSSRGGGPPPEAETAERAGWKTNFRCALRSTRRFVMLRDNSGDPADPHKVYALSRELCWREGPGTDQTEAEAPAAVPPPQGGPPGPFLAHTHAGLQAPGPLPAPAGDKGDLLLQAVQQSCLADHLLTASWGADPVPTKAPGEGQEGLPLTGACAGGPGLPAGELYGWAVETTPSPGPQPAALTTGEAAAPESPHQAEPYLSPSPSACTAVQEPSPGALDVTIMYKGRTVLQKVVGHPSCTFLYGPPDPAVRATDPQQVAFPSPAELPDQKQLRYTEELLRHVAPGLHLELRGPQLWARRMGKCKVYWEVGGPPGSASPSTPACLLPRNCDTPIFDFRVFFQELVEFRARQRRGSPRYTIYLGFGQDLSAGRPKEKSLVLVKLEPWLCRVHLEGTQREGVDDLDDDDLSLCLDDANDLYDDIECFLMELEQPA
Sequence,fitted relative affinity
TTAGGTTTCGACGTTCGGTTAGTGCTA,2.96 z-score
CACTGACACCGATTTCATCACGTGCTA,0.913 z-score
TGGGAAATTCCTCTGAATAGGTGCTAG,-0.399 z-score
GACGATCTCAGTCTCGGGACGTGCTAG,0.0666 z-score
TCACTCTTTGGCAAAGCCAGGTGCTAG,0.862 z-score
TTAGAACTGCGGACTGGATTAGTGCTA,-0.71 z-score
GACGATCTCAGTCTCGAGAAGTGCTAG,-0.00265 z-score
TCACTTTCCCCTTCCTAACTGTGCTAG,7.89 z-score
TTAGATACCGGGTTTCGATTAGTGCTA,2.93 z-score
GACGGTCTCCTAATCCTGACGTGCTAG,0.865 z-score
TTAGGTATCGGACTGGGGTAGTGCTAG,-0.149 z-score
TTAGATTTCAGATCCGATTAGTGCTAG,0.665 z-score
GACGGTATCCTTATCCTAACGTGCTAG,1.2 z-score
GCCGATATCGGGACTGGAGACGTGCTA,-0.0988 z-score
TTAGGTTTCGGTTTCGGCTAGTGCTAG,14.6 z-score
TCAAATTTCTTTCTAATACTGTGCTAG,0.627 z-score
GACGGGCTGCTTTTCCTGACGTGCTAG,0.0912 z-score
TTAGGAATGCTTCTCCTTTAGTGCTAG,0.352 z-score
TTAGGTCTCCTTCTCCTTTTGTGCTAG,1.31 z-score
GACGGTTTCTGGTTTCGGGACGTGCTA,6.3 z-score
TCTTTTTGCTTTCTTTATGCGTGCTAG,3.84 z-score
TTAGGTTCCGTTTTCGGTTAGTGCTAG,8.63 z-score

# Series 4 — technique: RNA Bind-n-Seq; molecule type: RNA; medium: in vitro; tested at: not given; baseline: input RNA pool; reading: higher = stronger binding
# Target: RING finger protein unkempt homolog, zinc fingers 1-6, GST-SBP tag (UNK, Homo sapiens, UniProt Q9C0B0, residues 30-357)
# Notes: RNA with constant flanks, human and mouse sites, ends assumed
# Target sequence (chain): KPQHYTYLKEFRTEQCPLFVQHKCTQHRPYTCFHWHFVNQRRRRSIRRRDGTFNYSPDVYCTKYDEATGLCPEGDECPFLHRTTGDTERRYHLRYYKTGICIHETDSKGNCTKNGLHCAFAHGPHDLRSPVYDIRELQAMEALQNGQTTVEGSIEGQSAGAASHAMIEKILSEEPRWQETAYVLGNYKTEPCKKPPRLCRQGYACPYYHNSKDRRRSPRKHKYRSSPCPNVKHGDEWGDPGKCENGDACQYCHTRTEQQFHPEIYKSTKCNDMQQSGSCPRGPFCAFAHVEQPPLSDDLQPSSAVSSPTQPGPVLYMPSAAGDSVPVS
Sequence,bound/input enrichment
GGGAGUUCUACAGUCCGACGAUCCCAGUCAGUGGGAGGUAGAAAGGGUGGCAUCUGUAGCCCUCUUCAUACACAUAAGUGGCAUUUAGGUGAAUGUCCCAGCUAAUCACUAGCAUGUCUAGGUAUUGGCUGGGUAGUGGGUAUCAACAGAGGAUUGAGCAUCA,0.924 ratio
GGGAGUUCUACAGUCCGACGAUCAGGCCACUGUGGUUGAAUUGGGAGAACCCAGACAUCAUGUCAGAGCUACUGUUUCAGAACAAUGAGAUCAUCUUUAAAAAUGGCGACGACUUACGGCAAGAUAUGUUAACCCUUCAGAUCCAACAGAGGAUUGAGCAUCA,0.106 ratio
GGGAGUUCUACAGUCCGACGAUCUUCAGCAGUGAUCCCUUCAAUUUCAACAGUCAAAAUGGUGUGAACAAGGAUGAGAAGGACCACUUAAUUGAGCGACUAUACAGAGAGAUCAGUGGAUUGAAGGCACAGCUAGAAAACAUGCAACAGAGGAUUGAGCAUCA,0.689 ratio
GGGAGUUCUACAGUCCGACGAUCAUGGGCUUUGAUGCUCUUCUCCACAAUGCUAACCCCCUCCCUGUCUUAACCAAUACCGUGUUCCUGACUGUUACUGCUCCACUGACUCUGCCUUGGGACCAUAUCCAAAGUACAUUGCUCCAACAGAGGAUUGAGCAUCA,0.801 ratio
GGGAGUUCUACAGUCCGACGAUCAAUAGGCUGCCCAUAUAAGUCAAAGGAAAAUGAGCCCAGGCCUUGCUAUGAAGCAGUGUGUGAAUGGACAAUGUUGAAUGAAUGUCUGGCUCAGUGAUGGAGAGCCAGGUUCAUCUUUGACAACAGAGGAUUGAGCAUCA,0.186 ratio
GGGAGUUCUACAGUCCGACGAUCCCAAUUGUGGAGCAGUACUUGAAGACAAAGAAAAAUUCUAAUAAUUUAAUCAUCAAGUACAUUAGCUGCCGCCUGCUGACACUCAUCAUUAUACUGUUAGCGUGUAUCUACCUGGGCUAUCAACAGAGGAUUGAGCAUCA,0.34 ratio
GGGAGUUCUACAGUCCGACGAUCGAUCUCAUCGUGGCUGACAGUAGUCGCAAGGAAAUUCUCCAUUUUCCUAAGGGUGGGGGCUAUAGUGUCCUUAUUCGAGAGGGACUUACCUGUCCGGUGGGCAUAGCCCUAACUCCUAAGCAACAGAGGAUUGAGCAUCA,0.1 ratio
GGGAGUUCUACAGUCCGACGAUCGUGCUUUUAUUACUUUCAUCUAUACACUUCCAGUGUCGAAGGCUGGACAGAUCUGCUCACUUUAGCACUCUGGCAAUUAAACAGAACCCCCUUCUGGCAGAAGCUUAUUCGAAUUUGGGGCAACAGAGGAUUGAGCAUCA,0.38 ratio
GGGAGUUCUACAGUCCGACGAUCCAGAUCUAUAUCUAUAACGAGAAGAUUGUGAGUGGACACCUACAGCCUAACCUGGUGGACCUGUGUGCCUCUGUCGCAGAGCUGGAUGACAAGAGCAUUUCUGACAUGUGGGCCAUGGUACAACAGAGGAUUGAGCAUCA,0.0476 ratio
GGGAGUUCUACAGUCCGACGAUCGCCGUGCACGUGGUGGUGAGCGCUGUCCGAGAGCUGAACCGCAGCCAGGAGAUCGGUGUGAAGCCUCUGGCCUGUACAUCGGCCAACAUUUGGCCCCACGGGACCAGCCUCAUGAACUACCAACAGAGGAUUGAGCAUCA,0.0516 ratio
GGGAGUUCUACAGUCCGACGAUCGACCAAAGUUUUUGAUCAUAUGUUUUGAGAUAAUUGUAUGAUCAAGUUGUAUAUUUAAGUCUUAGUGUUUGAAAUUGCAGUUAUAAUUGUUCAUAGGAUUGCUAUUUAAGAUGAUUUGAACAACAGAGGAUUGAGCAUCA,2.22 ratio

# For quick reference, copied from above (series 4):
Sequence,bound/input enrichment
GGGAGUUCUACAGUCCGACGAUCUUCAGCAGUGAUCCCUUCAAUUUCAACAGUCAAAAUGGUGUGAACAAGGAUGAGAAGGACCACUUAAUUGAGCGACUAUACAGAGAGAUCAGUGGAUUGAAGGCACAGCUAGAAAACAUGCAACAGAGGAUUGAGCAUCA,0.689 ratio
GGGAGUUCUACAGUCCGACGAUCAUGGGCUUUGAUGCUCUUCUCCACAAUGCUAACCCCCUCCCUGUCUUAACCAAUACCGUGUUCCUGACUGUUACUGCUCCACUGACUCUGCCUUGGGACCAUAUCCAAAGUACAUUGCUCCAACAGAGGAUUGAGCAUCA,0.801 ratio
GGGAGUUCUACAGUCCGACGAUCCCAGUCAGUGGGAGGUAGAAAGGGUGGCAUCUGUAGCCCUCUUCAUACACAUAAGUGGCAUUUAGGUGAAUGUCCCAGCUAAUCACUAGCAUGUCUAGGUAUUGGCUGGGUAGUGGGUAUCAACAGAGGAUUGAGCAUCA,0.924 ratio
